Results of several laboratories.
Numbered parts are unrelated; each lists some results of a single study.

Series 1
Target: RING finger protein unkempt homolog, zinc fingers 1-6, GST-SBP tag (UNK, Homo sapiens, UniProt Q9C0B0, residues 30-357)
Technique: RNA Bind-n-Seq
Molecule type: RNA
Sample: in vitro
Concentration: not given
Setting: RNA with constant flanks, human and mouse sites, ends assumed
Baseline: input RNA pool
Reading: higher = stronger binding
Constant ends, left off below: GGGAGUUCUACAGUCCGACGAUC … CAACAGAGGAUUGAGCAUCA
Residues (chain): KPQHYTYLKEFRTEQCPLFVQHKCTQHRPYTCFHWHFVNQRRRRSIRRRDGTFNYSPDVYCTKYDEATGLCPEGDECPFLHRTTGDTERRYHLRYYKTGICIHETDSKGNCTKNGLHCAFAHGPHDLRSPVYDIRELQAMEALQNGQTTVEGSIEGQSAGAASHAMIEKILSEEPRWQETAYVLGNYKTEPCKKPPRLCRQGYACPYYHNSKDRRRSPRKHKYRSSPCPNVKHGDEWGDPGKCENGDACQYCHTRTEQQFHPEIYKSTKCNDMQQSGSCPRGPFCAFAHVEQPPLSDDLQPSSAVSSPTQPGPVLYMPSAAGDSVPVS
| Sequence | bound/input enrichment |
| --- | --- |
| UCAUUGUCUUUUUUUUCCUCUUUUCUCUGUAAUUUGUUACUAAACAAAUUCCAGAAUUUGUUUAGUAGCUGAGUGUUCCUGAGUUGCCUAGUAGCAAUAAAACAAGUGAAUAGGAAAAUA | 0.486 ratio |
| GGGCUGCUUUACGCUCUGAGGGUCCCGCUGAGGCUGUGUGACAACGUGACAGCGGUGACAGGGUUUUUAAGUUCACUGACACCCAAGUUCUAUGUGGCACUUACAGGGACAUCUUCUUUG | 0.0788 ratio |
| GUACUUGCUGUAGGAUACAAGCUGUCUUUGCACUAGCUCUAAAGAAGAAUUUCUUCUGGUUUUAGAGAACUGAUUUUGUUUUAGCAUUAAACUGUUCAAGUUUUUGUACGUAGAUAUCUA | 5.64 ratio |
| CUCAUUUUUGACUUGGGAGGUGGCACUUUUGAUGUGUCAAUCCUCACUAUUGAGGAUGGAAUUUUUGAGGUCAAAUCAACAGCUGGAGACACCCACUUAGGUGGAGAAGAUUUUGACAAC | 1.13 ratio |
| UUGGAAGGACCAGAGCCCAGUCAGCUCAAACCACUAGUUAUACAGGCUAUGCCCACCCUAAUAGAAUUAAUGAAAGACCCCAGUGUAGUUGUUCGAGAUACAGCUGCAUGGACUGUAGGC | 5.17 ratio |
| AUGUGCCCGCUUGAAAACUUGGUCCGCUUUGUGAAAAGGGACAUGUUUGUAGCCCUGGGUGGCAGUGGUACAAAUUAUUAUGAUGCAUGUCACAGGGAAGGAUUCUAAAAGGUAUGCAGU | 0.216 ratio |
| UUCAGAUAUUCUUAGUAACCAAAACAGUGACUCAUGCAGUUGAGAGAGCCUUUGGGCUGUCAGUUUACAGUACAUCAGGCUUGCUGAGGCUAAGCAAAUCAGAAAGGUGCCAUGUUUAUA | 0.239 ratio |
| CAGGGUGGGACCCGGGACCCGCGGCUCAGUGGCCCGCUAGCCACGUCAGCCAAGCCACUUUAGGUCCAUUUUUUAAUUUUAACAGUGCUCUUCCAUCUUGUGCAUAAGCCUGAGAUUUGG | 120 ratio |

Series 2
Target: TAR DNA-binding protein 43, full length, His tag (TARDBP, Homo sapiens, UniProt Q13148, residues 1-414)
Technique: RNA Bind-n-Seq
Molecule type: RNA
Sample: in vitro
Concentration: 20 nM
Setting: 6-mer, flanks averaged, single round
Added: 150 mM KCl
Baseline: input library
Reading: higher = stronger binding
| Sequence | 6-mer enrichment (R) |
| --- | --- |
| UCCGUU | 0.574 |
| CAGUUU | 0.625 |
| UUUGGA | 0.763 |
| UGCUUU | 0.64 |
| UUAGCA | 0.629 |
| UUGAGU | 0.886 |
| AACAUU | 0.598 |
| CUACGA | 0.628 |
| ACUAGG | 1.03 |
| UGGGAG | 4.44 |
| CUGUCU | 0.593 |
| UCCCAA | 0.628 |
| CCAAAG | 0.766 |
| UCAUCA | 0.538 |
| ACUUCC | 0.566 |
| CCCAUG | 0.711 |

Series 3
Target: RNA binding protein fox-1 homolog 2, RRM domain, GST-SBP tag (RBFOX2, Homo sapiens, UniProt O43251-10, residues 100-194)
Technique: RNA Bind-n-Seq
Molecule type: RNA
Sample: in vitro
Concentration: 365 nM
Setting: natural RNA segment, single round, ends assumed
Baseline: no-protein control
Reading: higher = stronger binding
Constant ends, left off below: GGGAGUUCUACAGUCCGACGAUC … UGGAAUUCUCGGGUGCCAA
Target sequence (chain): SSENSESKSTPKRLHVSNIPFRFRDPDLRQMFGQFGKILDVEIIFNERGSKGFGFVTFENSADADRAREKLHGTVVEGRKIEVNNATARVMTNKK
| Sequence | RBNS enrichment (R) |
| --- | --- |
| UCUGUCUGGACAUGCUUCCUAAAAACAGACCAUUUUCCUUAACUUGCAUCAGUUUUGGUCUGCCUUAUGAGUUCUGUUUUGAACAAGUGUAACACACUGAUGGUUUUAAU | 1.02 |
| GAAACAAGGAGUUGGCAUCUUGGAUCUCAGAAUGGCCUGGAAACGGAUGGCCUCUACGCUGUUCCAUCACAGUCUCCAACUAAGGCUUAUGGUAUUUCAUUAAACUGUUG | 0.345 |
| CACCAUCCGGAUGGCCUCCCACAGGCCCUCCAGCCUCAAUCCUCCGUGCUUCCUUUUUUCCUUUCCCAACAGUCCAAGAGCGCAGGAUCCAACUUUCUAGUCACGCUGUU | 0.488 |
| UGGGCAGUGACACCUCUAGUGCCCCCAGCAGCCAUGUAGGCAUCCACUCCACCUGCAAAAGACGAUGGCUCUGUUGUUCUUGGCUUCCUGGUGUGCUUUGAAGGCAGAUG | 0.612 |
| UAAGUGUUUAUCAUAUAUAUGGGUACUUUGUAAUAUCUAAAAACUUAGAAACGGAAAUGGAAUCCUGCUCACAAAAUCACUUUAAGAUCUUUUCGAAGCUGUUAAUUUUU | 0.842 |
| CAGCCUCCCGAGUAGCUGGGAUUACAGGCACCCACCACCACGCUCAGCUAAUUUUUGUAUUUUUAGUAGAGAUGGGAUUUUGUCAUGUUGGCUAGGCUAGUCUCGAAUUC | 1.14 |
| UCGCUGGUAUUACAUCUUUUUAAAAGCCUAUUAUAACAUGGUUAGCCUAUAAGGCAGUGUUGGUCCCCUUCUAAUAUUGGCCUCAUAAAGGGGUUCCACUGUACUUUCCG | 0.449 |
| GCAGAGAGCAGAGAGCAGCCACUGUCACUAUCUUGCCAUCUCAUUCAGGGUCCUCUGAAAGUUACCCAGGGCUCUCAUCUACUUCCCUAGAGCUUGCAGUGUAAAGUGAC | 0.427 |

Series 4
Target: Probable WRKY transcription factor 33, N-terminal DNA-binding domain (WRKY33, Arabidopsis thaliana, UniProt Q8S8P5, residues 169-264)
Technique: DNA-protein interaction ELISA
Molecule type: double-stranded DNA, one strand shown
Sample: in vitro, bacterial lysate
Concentration: not given
Setting: whole dsDNA probe, crude lysate protein
Baseline: highest signal in screen
Reading: higher = stronger binding
Target sequence (chain): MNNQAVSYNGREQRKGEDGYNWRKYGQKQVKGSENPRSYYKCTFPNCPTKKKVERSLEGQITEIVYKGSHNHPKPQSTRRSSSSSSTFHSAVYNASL
| Sequence | relative absorbance |
| --- | --- |
| AAAAAAAACGTCTGGCGGGGTTGAGAAAAA | 20.5 % of maximum |
| AAAAAATTACTTCTCCCTTCCTTTGCAAAA | 25.2 % of maximum |
| AAAAAAGGTAATGCCGGTCCCAGTATAAAA | 16 % of maximum |
| AAAAAATTACGTTTGTATTTGTAAAA | 25.7 % of maximum |
| AAAAAACGGAAGATCGTGACTGCTAGAAAA | 19.6 % of maximum |
| AAAAAACATGTCGCACCTGTACTAACAAAA | 25.7 % of maximum |
| AAAAAATCAGTCTGAGACTTACAACTAAAA | 23.1 % of maximum |
| AAAAAATGGTCGATCCGCATGCAGTTAAAA | 26.2 % of maximum |
| AAAAAATTCGGGACTAGTAGTGGTGAAAAA | 22 % of maximum |
| AAAAAATGTCTAGACTCGGACATTCGAAAA | 24.3 % of maximum |
| AAAAAATCCGTTCCCATTTGTCCGTCAAAA | 21.2 % of maximum |
| AAAAAAGAAATACCAGAAACTATCATAAAA | 17.7 % of maximum |
| AAAAAACACTTAACTGAGTGGGATTGAAAA | 21.9 % of maximum |
| AAAAAAGTATAACGTGTTGTTGACCGAAAA | 82.1 % of maximum |
| AAAAAAACGCTATATATTGGTGCTAGAAAA | 23.2 % of maximum |
| AAAAAATTCTAGCTTTTAACTTTAGCAAAA | 25.1 % of maximum |
| AAAAAATGTCGGCTGTTAGGATATCGAAAA | 27.8 % of maximum |
| AAAAAAATTGTATCATACTTCAGTTGAAAA | 25.5 % of maximum |
| AAAAAAGTTGCCGACGATTGCGGGTTAAAA | 22.8 % of maximum |
| AAAAAACTGGCGACTGCCAGTGGTAGAAAA | 22 % of maximum |
| AAAAAAACTTCTGTCCCTGTTCCCGTAAAA | 18.9 % of maximum |
| AAAAAACGCTTTCAGTTTTGATCTTAAAAA | 32.1 % of maximum |
| AAAAAAGCCTTTACCCTTGTTCCTCTAAAA | 24.5 % of maximum |
| AAAAAATCCATGTTTAAGCTGGTCTCAAAA | 28.1 % of maximum |

Excerpt of the above (series 2):
| Sequence | 6-mer enrichment (R) |
| --- | --- |
| CCAAAG | 0.766 |
| UUAGCA | 0.629 |
| UCCGUU | 0.574 |
| CAGUUU | 0.625 |
